Measured values of several laboratories.
Numbered parts are unrelated; each lists some results of a single study. Positions count from the first letter of the parent shown.

Study 1
Target: CCNA2, cyclin fold, Cln2 fusion (human)
Method: yeast growth competition, sequencing
Sample: yeast
Setting: strong parent motif
Relative to: not given
Direction: higher = stronger binding
Starting sequence: NPAT docking peptide (human); PCHRRVLCFDSTT; partner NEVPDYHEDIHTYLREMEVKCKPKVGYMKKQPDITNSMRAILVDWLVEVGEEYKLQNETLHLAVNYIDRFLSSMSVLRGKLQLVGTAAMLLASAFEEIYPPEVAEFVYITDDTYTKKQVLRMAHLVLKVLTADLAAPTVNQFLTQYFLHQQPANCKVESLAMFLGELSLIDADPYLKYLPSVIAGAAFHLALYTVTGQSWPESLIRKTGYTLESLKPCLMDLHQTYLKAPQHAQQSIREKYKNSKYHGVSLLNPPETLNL
Variant | normalised enrichment score
F9A | -0.158
H3A | 4.81
R5A | 0.386
R5A L7A | 0.112
T12A | 1.45
R4A | 0.504
P1A | -0.106
D10A | 1.22
R5K F9L | 0.278
F9L | 0.186

Study 2
Target: Sal-like protein 4, full length isoform B (SALL4, Homo sapiens, UniProt Q9UJQ4-2, residues 1-616)
Method: universal PBM
Form: double-stranded DNA, one strand shown
Sample: in vitro
Tested at: not given
Setting: 8-mer, flanks averaged, mean of replicates
Direction: higher = stronger binding
Target sequence (chain): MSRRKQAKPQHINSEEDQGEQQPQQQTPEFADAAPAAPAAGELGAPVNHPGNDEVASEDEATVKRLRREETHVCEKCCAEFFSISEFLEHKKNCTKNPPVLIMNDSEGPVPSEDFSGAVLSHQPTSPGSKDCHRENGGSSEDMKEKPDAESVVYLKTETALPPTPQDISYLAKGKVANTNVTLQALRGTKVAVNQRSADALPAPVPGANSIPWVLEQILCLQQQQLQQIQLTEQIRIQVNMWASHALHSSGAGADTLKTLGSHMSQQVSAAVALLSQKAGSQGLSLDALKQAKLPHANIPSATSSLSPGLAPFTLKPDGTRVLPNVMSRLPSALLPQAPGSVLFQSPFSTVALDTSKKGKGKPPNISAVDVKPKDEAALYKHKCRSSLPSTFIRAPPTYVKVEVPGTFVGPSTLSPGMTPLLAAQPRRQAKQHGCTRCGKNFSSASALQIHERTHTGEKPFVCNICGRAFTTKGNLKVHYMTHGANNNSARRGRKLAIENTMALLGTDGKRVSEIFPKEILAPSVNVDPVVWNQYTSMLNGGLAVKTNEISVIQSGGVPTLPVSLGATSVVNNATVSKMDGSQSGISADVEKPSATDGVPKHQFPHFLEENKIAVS
Oligonucleotide | E-score
AATCCCAC | -0.142
CCCAGCTA | -0.169
CCTGATGA | -0.0252
AACCTATC | 0.0354
AGAACGAC | -0.0451
AGTGGGGC | -0.404
CTGTTTTC | 0.12
AAGAGGGA | 0.0508
GTGCTCAA | -0.013
CGATTTAG | 0.075
CCCACTAG | -0.237
AACTGCGA | -0.141
ACGGATTA | 0.197
ATATTAGC | 0.311
ACCAAGAC | -0.00221
CTTTGACA | 0.112
AAGACTAG | 0.0248
CAGTTAAC | -0.195
CCCGATCG | -0.21
ATTCCCGA | -0.0786
ACACAAGA | 0.163
TACGTCTA | 0.168
AGGCCTCG | -0.348
ATGGCCTG | -0.182
AAGCGAAT | 0.0126

Study 3
Target: Histone acetyltransferase KAT6A, winged helix 2, GST fusion (KAT6A, Homo sapiens, UniProt Q92794, residues 85-181)
Method: protein binding microarray
Form: double-stranded DNA, one strand shown
Sample: in vitro
Tested at: not given
Setting: 8-mer, flanks averaged, mean of 2 arrays, mostly near background
Relative to: not given
Direction: higher = stronger binding
Residues (chain): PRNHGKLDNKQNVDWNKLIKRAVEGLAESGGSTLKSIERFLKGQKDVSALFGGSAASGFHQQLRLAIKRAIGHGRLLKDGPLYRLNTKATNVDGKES
Oligonucleotide | E-score
CCTGGTGC | 0.0891
ATAAGAAC | 0.0296
AAGGGCCC | -0.006
CAAGGGGG | 0.0573
AAACCAGG | -0.0514
TGACTGAA | -0.0538
AATTTAAA | 0.101
ACGAGGAC | 0.0175
CTCACAAC | -0.00226
GCGACACA | -0.0576
GCATACCC | 0.111
GCACGTAC | -0.112
CAAGCGGA | -0.0419
CTGCAATA | -0.044
ACGCCAGG | 0.252
ATTTAGCC | 0.0271
ACTGGCAT | -0.168
AAAGTTTG | 0.0213
AGCCGGTA | 0.132
AACAAGGT | -0.099
CTCTGTGC | 0.0438
CGCCTCTC | -0.124
GCAGCTGC | 0.231
AGCTCGGA | -0.0423
CAGGGTGC | -0.119

Study 4
Target: ABI1, truncated, D143A, DHFR fusion (Arabidopsis thaliana)
Method: DHFR PCA, deep sequencing
Sample: yeast
Setting: methotrexate growth selection, single substitutions
Together with: (+)-ABA 710 µM
Relative to: wild-type fitted maximum
Direction: higher = stronger binding
Starting sequence: PYL1, truncated, DHFR fusion (Arabidopsis thaliana); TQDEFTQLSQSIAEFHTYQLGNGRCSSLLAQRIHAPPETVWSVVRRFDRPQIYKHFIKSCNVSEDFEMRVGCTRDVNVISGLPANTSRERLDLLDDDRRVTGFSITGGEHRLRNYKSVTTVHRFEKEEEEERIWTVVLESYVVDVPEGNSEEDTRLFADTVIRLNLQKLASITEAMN; partner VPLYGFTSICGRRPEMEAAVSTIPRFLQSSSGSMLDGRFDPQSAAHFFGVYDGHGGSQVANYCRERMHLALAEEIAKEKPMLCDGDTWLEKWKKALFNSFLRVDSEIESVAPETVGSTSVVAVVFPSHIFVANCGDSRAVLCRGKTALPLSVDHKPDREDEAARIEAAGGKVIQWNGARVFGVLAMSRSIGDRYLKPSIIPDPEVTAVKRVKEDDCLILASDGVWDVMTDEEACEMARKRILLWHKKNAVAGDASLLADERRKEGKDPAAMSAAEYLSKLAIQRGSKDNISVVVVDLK
Variant | relative binding score [%]
R132Y | 103
S80M | 36.3
M68T | 99
V118P | -28.7
V137N | 3.26
F47R | -2.85
D3G | 100
M176C | 95.8
L166K | -2.43
S42R | 106
D96K | 55.8
E129C | 107
Y18I | 92.4
H122C | 80.1
R69W | 83.3
Y141A | 1.02
S171W | 88.5
K116G | 67.9
G71S | 85.1

Study 5
Target: ATF7, bZIP domain (human)
Method: DHFR protein complementation
Sample: yeast
Setting: single substitutions, most at no-binding floor
Relative to: wild-type JUN-FOS pair
Direction: higher = stronger binding
Starting sequence: JUN, bZIP domain (human); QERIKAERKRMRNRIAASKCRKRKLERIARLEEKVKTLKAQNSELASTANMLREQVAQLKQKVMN; partner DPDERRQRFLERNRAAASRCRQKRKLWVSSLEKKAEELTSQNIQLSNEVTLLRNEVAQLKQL
Variant | binding fitness
A49G | -1.42 natural log
L52N | -1.38 natural log
R53Y | -1.49 natural log
K36G | -1.2 natural log
A49Y | -1.32 natural log
L45M | -1.22 natural log
E33G | -1.19 natural log
E32T | -1.11 natural log
M51S | -0.892 natural log
L31A | -1.18 natural log
A46T | -0.784 natural log
Q41F | -1.45 natural log
E54R | -1.04 natural log
V56K | -1.39 natural log
L31D | -1.45 natural log
L31I | -1.28 natural log

Study 6
Target: Interferon regulatory factor 5, full length, phosphomimetic (IRF5, Homo sapiens, UniProt Q13568-2, residues 1-514, K96S/S451D/S453D/S456D/S462D)
Method: protein-binding microarray
Form: double-stranded DNA, one strand shown
Sample: in vitro
Tested at: 250 nM
Setting: 60-bp whole probe
Together with: salmon DNA 0.4 mg/ml
Relative to: random background probes
Direction: higher = stronger binding
Constant ends, left off below: GCCTAGCAC … GTCTTGATTCGCTTGACGCTGCTG
Oligonucleotide | log fluorescence
GACGGTTTCGACAGTGGGGACGTGCTA | 4.48 z-score
CTGTCTGAGGACACCCTGGCGTGCTAG | -0.52 z-score
GTTCTTTTCAGTCCCCTCTTGTGCTAG | 1.32 z-score
GACGGTATCGGTTTCGGGAGGTGCTAG | 8.41 z-score
GACGGTCTCGGTATCGGGGCGTGCTAG | 0.72 z-score
GACGGTATCGGATTTCGGGACGTGCTA | 2.41 z-score
GACGGACTGGGATATCGGGACGTGCTA | -0.463 z-score
CACGGTTTCCTTTTCCTGACGTGCTAG | 1.25 z-score
AACGGTATCCTTTTCCTGACGTGCTAG | 0.6 z-score
GACCGTATCGGGTTTCGGGACGTGCTA | 4.61 z-score
TCATATATCATTTAATTACTGTGCTAG | 1.58 z-score
TTAGATTCCAGTTTCGATCAGTGCTAG | 9.36 z-score
GACGGTAGCGGGTATCGGGACGTGCTA | 0.375 z-score
GGAGGGGGGCGGGGCGGTGGGTGCTAG | 2.82 z-score
TTTGGACTGGACACTGGGTTAGTGCTA | -0.391 z-score
TTATATACCTGTATATCTTCGTGCTAG | 0.599 z-score
AACTTTTTTTAATTGAGAAGGTGCTAG | 0.464 z-score
TCAACTCTTTACATGGGACTGTGCTAG | -0.0509 z-score
GTTTATTTATTTTTACATTAGTGCTAG | 1.36 z-score
CTAGTTGTACTTTCTATCTCTGTGCTA | 2.98 z-score
GACGGTTTTGGGTATCGGGACGTGCTA | 1.28 z-score

Study 7
Target: RNA binding protein fox-1 homolog 2, RRM domain, GST-SBP tag (RBFOX2, Homo sapiens, UniProt O43251-10, residues 100-194)
Method: RNA Bind-n-Seq
Form: RNA
Sample: in vitro
Tested at: 365 nM
Setting: natural RNA segment, single round, ends assumed
Relative to: no-protein control
Direction: higher = stronger binding
Constant ends, left off below: GGGAGUUCUACAGUCCGACGAUC … UGGAAUUCUCGGGUGCCAA
Residues (chain): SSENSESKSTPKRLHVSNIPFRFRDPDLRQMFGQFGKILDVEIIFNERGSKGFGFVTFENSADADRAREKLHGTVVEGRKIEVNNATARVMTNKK
Oligonucleotide | RBNS enrichment (R)
AUGUAAGUCUGCUAAAGUUUUUUAGCCCACUUAAAACUUAAGACAACCAUUUAAAAUAAUGGAUGGGUUACUAUGAGCAAUUUCGCUUUCAGAACCCCCUUGUUUUAGUA | 0.255
ACACUUCCCACUGCCAAGAUUUUGUAUUGCCAUCAGGUGCCAAAUAAAUGUUGAUACUUAUUACUGAUUUUGUGCCUGGUGUUUUUGUGGACACUCAAUCUUCGGAAGCU | 0.327
CUAGAUGGAGACAGAAUAACUGACUUGAACAUACAGUGUGCCUGUAAGUGUCCAGGCUCAGAGCUGGUGAAAACCCUUCUGUUGGGCGUGUGCAGGGUUAAACUCCUGAA | 0.271
GUCCCUGAGACAUAAGCGAGGUAGAUUCAGCCAUCCUCACCCUCAGACUUGAGGUCCCCACCCAGGCCAAGCCGGCCCCCCGUACCCCUUGCCUGGGAGCAAACCGCCAG | 0.263
ACAGAUGAUCAUAGCAGGGAUUUGAAAUAUGAAUUAUGGUUACAUGGUCCUGAUUUUUUUUUUUUGGUGACAUGAAUGGAACAGAAGUAUUUUGUUUUAGAAGGUCCUGG | 0.46
UGCCCCAGGACCUUGAGAGACAGCAGCAUUCCAGGCACAGACAGACUUGGCUGCACCCCACUGUCCCUUGCAAGACAGGUUCUGGAGCCAGGAGCAACUGUCCAGCCCUC | 0.442
AAAUGUUAUUUCCUGCAUCCCUUGGCUGUGAUGCCCCUCUCCCGAUUUCCCAGGGGCUCUGGGAGGGACCCUUCUAAGAAGAUUGGGCAGUUGGGUUUCUGGCUUGAGAU | 0.621
GCACCCCGCUCAAGUCUCCCACCCCUGGUGGACCUCUGACUCUGUUGCUUUUCUUUAAGUAAAGAUUACAUCUAUCUGGGUCGUGGUUUCUCUUUUGGUGGCAAACUUUU | 0.365
UAAAGUUAUUUAAGAAUAAAAAGAACUUUGGCUAUGAGAUGUAAUCACCUUGCCUUCCUCUCUAGCAUUCUGCAGGAGUGAUGCCCACGGAGCCUUGGGCUUCUGCGUGU | 0.354
GGUGUUCAGCUUCGACAAAGAUGACGUUUUCUGAGAACUUAGUCCGUCCGUACCCAGCUAACCUCUCUCCCAUGCUGGAUGAAGAAGUUCUUAACUUCCCAAGCUGCAGA | 0.216
AACUGGGUGUGCUUUAUAGCUCCAGCUUCCUGGGAGGAGCAGUGGAGCCAGCUCCCUCACCCCUUCUUGCCUUCCCUCUGCCUGGCCUGGAACUCGGGCUUCUGCCCAUU | 0.659
ACGAGCUGUCAAAGCGUAGCCAGCCAGGGGCAGGCCCCUGCUGCCCGGAAGCUCCCGCGUGCAUCCCGGGAUGACCAGACUCCCGGACUCCUCAGGCAGUGCCCUUCCUC | 0.184

A few entries again (study 2):
Oligonucleotide | E-score
AACCTATC | 0.0354
AGAACGAC | -0.0451
AGTGGGGC | -0.404
CTGTTTTC | 0.12
AAGAGGGA | 0.0508
GTGCTCAA | -0.013
CGATTTAG | 0.075
CCCACTAG | -0.237
AACTGCGA | -0.141
ACGGATTA | 0.197
ATATTAGC | 0.311
